Assay results of several laboratories.
Protocols differ between the studies behind these lines. Numbers after ± are the reported error. In brackets after ≈: the same amount, converted by molar mass.
Organism: Pseudomonas aeruginosa

Nc1nc2ccc([S+]([O-])c3cn[nH]c3)cc2s1 (centres unmarked) gave an inhibition of 16.4% (swarming area, modified FAB agar; PA14-lux; 200 µM, 24 h; reference: DMSO vehicle).
O=C(O)CN(CC(=O)O)CP(=O)(O)O gave a meropenem MIC of 1 µg/mL (VIM-2 producer; 32 µg/mL, added: meropenem).
With C#CCNC(=O)[C@H]1NC(=O)[C@H]2NC(=O)[C@H](NC(=O)[C@@H]3NC(=O)[C@H](CC(N)=O)NC(=O)[C@H](NC(=O)[C@@H](CC(C)C)NC)[C@H](O)c4ccc(c(Cl)c4)Oc4cc3cc(c4O[C@@H]3O[C@H](CO)[C@@H](O)[C@H](O)[C@H]3O[C@H]3C[C@](C)(N)[C@H](O)[C@H](C)O3)Oc3ccc(cc3Cl)[C@H]2O)c2ccc(O)c(c2)-c2c(O)cc(O)cc21 the MIC was over 86 µM (broth microdilution; ATCC 13883, cation-adjusted Mueller-Hinton broth).
With CC(C)[C@H]1NC(=O)[C@H](Cc2ccccc2)NC(=O)[C@@H](C(C)C)NC(=O)[C@@H](C)NC(=O)[C@H](CO)NC(=O)[C@@H](Cc2c(-c3ccc(-c4ccc(-c5ccccc5)cc4)cc3)[nH]c3ccccc23)NC(=O)[C@@H](CO)NC1=O the MIC90 was over 50 µM (broth dilution).
For CC(C)C[C@H](NC(=O)[C@H](CS)NC(=O)[C@H](CCCCN)NC(=O)CCNC(=O)CCCCCNC(=O)[C@H](CCCNC(=N)N)NC(=O)CCCCCNC(=O)[C@H](CCCNC(=N)N)NC(=O)[C@H](CCCNC(=N)N)NC(=O)CCCCCNC(=O)[C@H](CCCNC(=N)N)NC(=O)[C@H](CCCNC(=N)N)NC(=O)CCCCCNC(=O)[C@H](CCCNC(=N)N)NC(=O)[C@H](CCCNC(=N)N)NC(=O)CCCCCNC(=O)[C@@H](N)CCCNC(=N)N)C(=O)N[C@H](C(=O)N[C@@H](CCCCN)C(=O)N[C@@H](CO)C(=O)N[C@@H](Cc1ccc(O)cc1)C(=O)N[C@H](C(=O)N[C@@H](CO)C(=O)N[C@@H](CS)C(=O)N[C@@H](CCCCN)C(=O)O)[C@@H](C)O)[C@@H](C)O, “biofilm biomass reduction” read about 95% (crystal violet; ATCC 27853; 48 µM).
CC(C)C[C@H](NC(=O)[C@H](CCCCNC(=O)[C@H](CCCCN)NC(=O)[C@H](CC(C)C)NC(=O)[C@H](CCCCNC(=O)[C@H](CCCCN)NC(=O)[C@H](CC(C)C)NC(=O)[C@H](CCCCNC(=O)[C@H](CCCCN)NC(=O)[C@@H](N)CC(C)C)NC(=O)[C@H](CCCCN)NC(=O)[C@@H](N)CC(C)C)NC(=O)[C@H](CCCCN)NC(=O)[C@H](CC(C)C)NC(=O)[C@H](CCCCNC(=O)[C@H](CCCCN)NC(=O)[C@@H](N)CC(C)C)NC(=O)[C@H](CCCCN)NC(=O)[C@@H](N)CC(C)C)NC(=O)[C@H](CCCCN)NC(=O)[C@H](CC(C)C)NC(=O)[C@H](CCCCNC(=O)[C@H](CCCCN)NC(=O)[C@H](CC(C)C)NC(=O)[C@H](CCCCNC(=O)[C@H](CCCCN)NC(=O)[C@@H](N)CC(C)C)NC(=O)[C@H](CCCCN)NC(=O)[C@@H](N)CC(C)C)NC(=O)[C@H](CCCCN)NC(=O)[C@H](CC(C)C)NC(=O)[C@H](CCCCNC(=O)[C@H](CCCCN)NC(=O)[C@@H](N)CC(C)C)NC(=O)[C@H](CCCCN)NC(=O)[C@@H](N)CC(C)C)C(=O)N[C@@H](CCCCN)C(N)=O: “OD600 of regrown supernatant” 1 ± 0.07 (biofilm inhibition, LB regrowth OD600; PAO1; concentration not given, 7-8 h regrowth; reference: medium without supernatant).
Nc1nc2ccc(Oc3ccc4nc(N)sc4c3)cc2s1 has an inhibition of 12.8% (pyocyanin production; PA14-lux; 200 µM, 18 h; reference: DMSO vehicle).
With CC(C)C[C@H](NC(=O)[C@H](CCN)NC(=O)[C@H](CCN)NC(=O)[C@@H](Cc1ccccc1)NC(=O)[C@H](CC(C)C)NC(=O)[C@H](CCN)NC(=O)[C@H](CCN)NC(=O)[C@@H](CCN)NC(=O)CCSCCOC(=O)c1ccccc1)C(N)=O the MBC was 128 µM (PAO1; 24 h, 37 °C).
CN[C@H](CC(C)C)C(=O)N[C@H]1C(=O)N[C@@H](CC(N)=O)C(=O)N[C@H]2C(=O)N[C@H]3C(=O)N[C@H](C(=O)N[C@H](C(=O)O)c4cc(O)cc(O)c4-c4cc3ccc4O)[C@H](O)c3ccc(c(Cl)c3)Oc3cc2cc(c3O[C@@H]2O[C@H](CO)[C@@H](O)[C@H](O)[C@H]2O[C@H]2C[C@](C)(NCc3ccc(OCc4cn(CC(=O)N[C@H](C(=O)N[C@@H](CCN)C(=O)N[C@H]5CCNC(=O)[C@H]([C@@H](C)O)NC(=O)[C@H](CCN)NC(=O)[C@H](CCN)NC(=O)[C@H](CC(C)C)NC(=O)[C@@H](CC(C)C)NC(=O)[C@H](CCN)NC5=O)[C@@H](C)O)nn4)c(OC)c3)[C@H](O)[C@H](C)O2)Oc2ccc(cc2Cl)[C@H]1O gave an MIC of 24 µM (≈ 63.3 µg/mL) (broth microdilution; ATCC 10145, cation-adjusted Mueller-Hinton broth).
With CC(C)[C@H]1NC(=O)[C@H](Cc2ccccc2)NC(=O)[C@@H](C(C)C)NC(=O)[C@@H](C)NC(=O)[C@H](CO)NC(=O)[C@@H](Cc2c(-c3ccc(-c4ccc5ccccc5c4)cc3)[nH]c3ccccc23)NC(=O)[C@@H](C)NC1=O the MIC90 was over 50 µM (broth dilution).
With CN[C@H](CC(C)C)C(=O)N[C@H]1C(=O)N[C@@H](CC(N)=O)C(=O)N[C@H]2C(=O)N[C@H]3C(=O)N[C@H](C(=O)N[C@H](C(=O)NCc4cn(CCCCC(=O)N[C@H](C(=O)N[C@@H](CCN)C(=O)N[C@H]5CCNC(=O)[C@H]([C@@H](C)O)NC(=O)[C@H](CCN)NC(=O)[C@H](CCN)NC(=O)[C@H](CC(C)C)NC(=O)[C@@H](CC(C)C)NC(=O)[C@H](CCN)NC5=O)[C@@H](C)O)nn4)c4cc(O)cc(O)c4-c4cc3ccc4O)[C@H](O)c3ccc(c(Cl)c3)Oc3cc2cc(c3O[C@@H]2O[C@H](CO)[C@@H](O)[C@H](O)[C@H]2O[C@H]2C[C@](C)(N)[C@H](O)[C@H](C)O2)Oc2ccc(cc2Cl)[C@H]1O the MIC was 6 µM (≈ 15.2 µg/mL) (broth microdilution; ATCC 35218, cation-adjusted Mueller-Hinton broth).
For CCCC(=O)OCCSC[C@H](N)C(=O)N[C@H](CCN)C(=O)N[C@@H](CCN)C(=O)N[C@@H](CCN)C(=O)N[C@@H](CC(C)C)C(=O)N[C@H](Cc1ccccc1)C(=O)N[C@@H](CCN)C(=O)N[C@@H](CCN)C(=O)N[C@@H](CC(C)C)C(N)=O, the MBC was over 128 µM (PAO1; 24 h, 37 °C).
Nc1nc2ccc(Oc3cc[nH]c(=O)c3)cc2s1 has a pyocyanin inhibition of 21.4% (absorbance; PA14-lux; 200 µM, 18 h; reference: DMSO).
With COc1ccc(-c2[nH]c3ccccc3c2C[C@H]2NC(=O)[C@@H](CO)NC(=O)[C@@H](C(C)C)NC(=O)[C@H](Cc3ccccc3)NC(=O)[C@@H](C(C)C)NC(=O)[C@@H](C)NC(=O)[C@H](CO)NC2=O)c(OC)c1 the MIC90 was over 50 µM (broth dilution).
The MBC of CCCCCCCCCC(=O)OCCSC[C@H](N)C(=O)N[C@H](CCN)C(=O)N[C@@H](CCN)C(=O)N[C@@H](CCN)C(=O)N[C@@H](CC(C)C)C(=O)N[C@H](Cc1ccccc1)C(=O)N[C@@H](CCN)C(=O)N[C@@H](CCN)C(=O)N[C@@H](CC(C)C)C(N)=O is reported as 32 µM (PAO1; 24 h, 37 °C).
O=CCNCCOn1c(=O)n(OCCNCCO)c(=O)n(OCCNCCOn2c(=O)n(OCCNCCO)c(=O)n(OCCNCCO)c2=O)c1=O has an MLC of 4 ± 1 µg/mL (≈ 5.2 µM) (broth microdilution).
Under “time to complete killing”, CC(C)C[C@H](NC(=O)[C@H](CC(C)C)NC(=O)[C@H](CCCCN)NC(=O)[C@H](Cc1ccccc1)NC(=O)[C@@H](NC(=O)[C@H](CCCNC(=N)N)NC(=O)[C@@H](N)CCCCN)C(C)C)C(=O)N[C@@H](CCCCN)C(=O)N[C@@H](CCCNC(=N)N)C(=O)N[C@@H](Cc1ccc(O)cc1)C(=O)N[C@@H](Cc1c[nH]c2ccccc12)C(=O)N[C@@H](CCCNC(=N)N)C(=O)N[C@@H](CCC(N)=O)C(=O)N[C@@H](CC(C)C)C(=O)N[C@@H](CCCCN)C(=O)N[C@@H](CCCCN)C(=O)N1CCC[C@H]1C(=O)N[C@H](C(=O)N[C@@H](CCCNC(=N)N)C(=O)NCCOCCOCC(=O)O)C(C)C is recorded as at most 60 min (RPMI-1640 10% FBS; 2× MIC, 37 °C).
Nc1nc2ccc(Oc3ccncc3)cc2s1 has a pyocyanin inhibition of 25.5% (absorbance; PA14-lux; 200 µM, 18 h; reference: DMSO).
CC(C)C[C@H](NC(=O)[C@H](Cc1ccccc1)NC(=O)[C@H](CCC(N)=O)NC(=O)[C@H](Cc1ccc(O)cc1)NC(=O)[C@H](CCCCN)NC(=O)[C@@H]1CCCN1C(=O)[C@H](CCCNC(=N)N)NC(=O)[C@H](CCC(N)=O)NC(=O)[C@H](Cc1c[nH]c2ccccc12)NC(=O)[C@H](CS)NC(=O)[C@H](Cc1c[nH]c2ccccc12)NC(=O)[C@H](Cc1ccccc1)NC(=O)[C@H](CCCNC(=N)N)NC(=O)[C@H](CCCCN)NC(=O)[C@H](CCCCN)NC(=O)[C@H](CCCCN)NC(=O)[C@@H](NC(=O)[C@@H](NC(=O)[C@H](CC(C)C)NC(=O)[C@@H](N)CO)C(C)C)[C@@H](C)O)C(=O)O gave an MBC of 8 µg/mL.
CC[C@H](C)[C@H](NC(=O)[C@H](CCCNC(=N)N)NC(=O)[C@H](CO)NC(=O)[C@H](Cc1ccc(O)cc1)NC(=O)[C@@H](NC(=O)[C@@H](NC(=O)[C@H](C)NC(=O)CNC(=O)[C@H](CCCCN)NC(=O)[C@H](CCCCN)NC(=O)CCNC(=O)CCCCCNC(=O)[C@H](CCCNC(=N)N)NC(=O)CCCCCNC(=O)[C@H](CCCNC(=N)N)NC(=O)[C@H](CCCNC(=N)N)NC(=O)CCCCCNC(=O)[C@H](CCCNC(=N)N)NC(=O)[C@H](CCCNC(=N)N)NC(=O)CCCCCNC(=O)[C@H](CCCNC(=N)N)NC(=O)[C@H](CCCNC(=N)N)NC(=O)CCCCCNC(=O)[C@@H](N)CCCNC(=N)N)C(C)C)[C@@H](C)O)C(=O)N[C@@H](CO)C(=O)NCC(=O)N[C@@H](CCC(N)=O)C(=O)N[C@@H](Cc1ccc(O)cc1)C(=O)N[C@@H](CCCCN)C(=O)O: “biofilm biomass reduction” 78% (crystal violet; ATCC 27853; 48 µM).
